Published values of several laboratories.
Each numbered part is a random draw from the data of one study; scales do not carry over between parts.

Study 1
Target: Histone acetyltransferase KAT6A, winged helix 2, GST fusion (KAT6A, Homo sapiens, UniProt Q92794, residues 85-181)
Technique: protein binding microarray
Form: double-stranded DNA, one strand shown
Medium: in vitro
Tested at: not given
Notes: 8-mer, flanks averaged, mean of 2 arrays, mostly near background
Relative to: not given
Direction: higher = stronger binding
Residues (chain): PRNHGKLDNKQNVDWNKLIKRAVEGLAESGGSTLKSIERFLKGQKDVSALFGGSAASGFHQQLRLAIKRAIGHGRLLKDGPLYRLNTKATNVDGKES
For `ACTTTGGG`, the E-score was -0.056.
`ATCGCCTG` gave an E-score of 0.0572.
`ACAAGTAA` has an E-score of -0.16.
The E-score of `AGTTCACA` is reported as -0.103.
For `CCTTCGAG`, the E-score was -0.0139.
The E-score of `AGTTGTAA` is reported as 0.00324.
`AGAATGCC` gave an E-score of 0.0662.
With `ATACGTAA` the E-score was -0.142.

Study 2
Target: Interferon regulatory factor 7, full length, phosphomimetic (IRF7, Homo sapiens, UniProt Q92985, residues 1-503, S471D/S472D/S475D/S476D/S477D/S483D/S484D/S487D)
Technique: protein-binding microarray
Form: double-stranded DNA, one strand shown
Medium: in vitro
Tested at: 2200 nM top
Notes: 60-bp whole probe
With: salmon DNA 0.4 mg/ml
Relative to: random background probes
Direction: higher = stronger binding
Shared flanks, not repeated: GCCTAGCAC … GTCTTGATTCGCTTGACGCTGCTG
Target sequence (chain): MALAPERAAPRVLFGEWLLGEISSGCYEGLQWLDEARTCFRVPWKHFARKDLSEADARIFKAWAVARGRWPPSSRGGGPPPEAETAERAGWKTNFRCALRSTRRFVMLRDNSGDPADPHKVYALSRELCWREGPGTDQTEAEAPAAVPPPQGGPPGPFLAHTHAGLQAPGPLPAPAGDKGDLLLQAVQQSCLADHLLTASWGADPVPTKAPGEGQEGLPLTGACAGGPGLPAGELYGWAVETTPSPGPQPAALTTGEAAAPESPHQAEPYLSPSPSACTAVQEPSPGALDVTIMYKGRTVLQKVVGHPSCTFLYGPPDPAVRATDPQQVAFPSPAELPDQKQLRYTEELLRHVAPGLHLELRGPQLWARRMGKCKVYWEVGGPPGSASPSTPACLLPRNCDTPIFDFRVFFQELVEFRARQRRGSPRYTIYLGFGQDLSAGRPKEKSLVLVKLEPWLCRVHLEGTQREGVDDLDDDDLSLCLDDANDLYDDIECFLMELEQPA
`TTAGATTTCAGACTGGCTTAGTGCTAG`: “fitted relative affinity” 0.161 z-score.
For `GGGGATAAACTTAATGGATGGTGCTAG`, “fitted relative affinity” read -0.438 z-score.
`GACGGTTTTGGTTCCGGGACGTGCTAG` — result for “fitted relative affinity”: 2.38 z-score.
`TCAATCTTCATTGTCATACTGTGCTAG` — result for “fitted relative affinity”: 0.923 z-score.
`TCAGGTTTCCTTATCCTTTAGTGCTAG` — result for “fitted relative affinity”: 2.44 z-score.
`TTAGATTTCGGGGCTGGATTAGTGCTA` — result for “fitted relative affinity”: 0.735 z-score.

Study 3
Target: Centromere-binding protein 1, full length, N-terminal tag (CBF1, Saccharomyces cerevisiae, UniProt P17106, residues 1-351)
Chain of UniProt P17106 (whole entry, looked up): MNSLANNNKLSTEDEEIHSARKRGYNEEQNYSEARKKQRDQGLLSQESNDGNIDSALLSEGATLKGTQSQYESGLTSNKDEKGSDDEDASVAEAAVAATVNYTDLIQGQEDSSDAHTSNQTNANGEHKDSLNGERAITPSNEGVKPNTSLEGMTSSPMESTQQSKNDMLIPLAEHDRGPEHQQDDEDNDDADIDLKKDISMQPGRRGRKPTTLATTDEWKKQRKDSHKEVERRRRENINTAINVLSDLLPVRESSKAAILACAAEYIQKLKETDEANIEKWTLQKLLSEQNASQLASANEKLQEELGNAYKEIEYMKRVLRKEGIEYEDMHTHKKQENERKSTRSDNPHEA
Technique: protein-binding microarray
Form: double-stranded DNA, one strand shown
Medium: in vitro
Tested at: 0.8 µM
Notes: whole 60-bp probe, no competitor
Direction: higher = stronger binding
Shared flanks, not repeated: … GTCTTGATTCGCTTGACGCTGCTG
`CTAACATCAAAACTACACGTTTGGGTGGTACGGTTC` gave a fluorescence intensity of 502 a.u.
`GAACTTGTACCAGTGAACGTGTGTTTATGCAAATAG` gave a fluorescence intensity of 596 a.u.
With `TGTACGAAGCTATTGCACGTAGATATAGTAGTTAGG` the fluorescence intensity was 547 a.u.
`GAAACGAAAATCTATCAGCTGAACATCTAGACTTAG` gave a fluorescence intensity of 594 a.u.
`TGTACGAAGCTATGTCATCAGTCTATAGTAGTTAGG` gave a fluorescence intensity of 535 a.u.

Other studies, line by line
`PhoQ, residues 284 288 289 292 302 303 TTSMTC` has a fold induction of 9.58 (PhoP, residues 12 14 15 18 19 VQGLL (Escherichia coli, UniProt P23836); Sort-seq, measured: YFP reporter; E. coli; PhoQ-PhoP variant library, with: 10 µM Mg2+; relative to: high Mg2+ state, higher = stronger signaling).

A few entries again (study 3):
`CTAACATCAAAACTACACGTTTGGGTGGTACGGTTC` gave a fluorescence intensity of 502 a.u.
`GAACTTGTACCAGTGAACGTGTGTTTATGCAAATAG` gave a fluorescence intensity of 596 a.u.
With `TGTACGAAGCTATTGCACGTAGATATAGTAGTTAGG` the fluorescence intensity was 547 a.u.
